Measured values from different studies.
A part holds a random share of what one study measured.
UniProt P43403, sequence (whole entry, looked up): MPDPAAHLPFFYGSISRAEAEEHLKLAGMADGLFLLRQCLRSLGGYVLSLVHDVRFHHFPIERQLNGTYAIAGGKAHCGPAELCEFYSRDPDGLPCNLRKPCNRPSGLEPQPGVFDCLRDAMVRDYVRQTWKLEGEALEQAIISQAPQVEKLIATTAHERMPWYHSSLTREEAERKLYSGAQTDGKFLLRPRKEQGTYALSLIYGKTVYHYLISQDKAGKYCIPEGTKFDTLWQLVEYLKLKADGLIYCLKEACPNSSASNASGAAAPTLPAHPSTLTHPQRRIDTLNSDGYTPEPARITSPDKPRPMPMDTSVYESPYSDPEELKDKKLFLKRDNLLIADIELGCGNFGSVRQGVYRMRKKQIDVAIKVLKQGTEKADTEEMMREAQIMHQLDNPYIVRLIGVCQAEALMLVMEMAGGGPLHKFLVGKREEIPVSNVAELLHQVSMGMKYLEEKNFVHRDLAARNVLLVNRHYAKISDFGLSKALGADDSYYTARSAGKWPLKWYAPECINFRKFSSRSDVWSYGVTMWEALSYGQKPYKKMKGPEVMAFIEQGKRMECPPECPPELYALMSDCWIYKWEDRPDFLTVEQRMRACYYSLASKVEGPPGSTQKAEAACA
UniProt Q9UL54, sequence (whole entry, looked up): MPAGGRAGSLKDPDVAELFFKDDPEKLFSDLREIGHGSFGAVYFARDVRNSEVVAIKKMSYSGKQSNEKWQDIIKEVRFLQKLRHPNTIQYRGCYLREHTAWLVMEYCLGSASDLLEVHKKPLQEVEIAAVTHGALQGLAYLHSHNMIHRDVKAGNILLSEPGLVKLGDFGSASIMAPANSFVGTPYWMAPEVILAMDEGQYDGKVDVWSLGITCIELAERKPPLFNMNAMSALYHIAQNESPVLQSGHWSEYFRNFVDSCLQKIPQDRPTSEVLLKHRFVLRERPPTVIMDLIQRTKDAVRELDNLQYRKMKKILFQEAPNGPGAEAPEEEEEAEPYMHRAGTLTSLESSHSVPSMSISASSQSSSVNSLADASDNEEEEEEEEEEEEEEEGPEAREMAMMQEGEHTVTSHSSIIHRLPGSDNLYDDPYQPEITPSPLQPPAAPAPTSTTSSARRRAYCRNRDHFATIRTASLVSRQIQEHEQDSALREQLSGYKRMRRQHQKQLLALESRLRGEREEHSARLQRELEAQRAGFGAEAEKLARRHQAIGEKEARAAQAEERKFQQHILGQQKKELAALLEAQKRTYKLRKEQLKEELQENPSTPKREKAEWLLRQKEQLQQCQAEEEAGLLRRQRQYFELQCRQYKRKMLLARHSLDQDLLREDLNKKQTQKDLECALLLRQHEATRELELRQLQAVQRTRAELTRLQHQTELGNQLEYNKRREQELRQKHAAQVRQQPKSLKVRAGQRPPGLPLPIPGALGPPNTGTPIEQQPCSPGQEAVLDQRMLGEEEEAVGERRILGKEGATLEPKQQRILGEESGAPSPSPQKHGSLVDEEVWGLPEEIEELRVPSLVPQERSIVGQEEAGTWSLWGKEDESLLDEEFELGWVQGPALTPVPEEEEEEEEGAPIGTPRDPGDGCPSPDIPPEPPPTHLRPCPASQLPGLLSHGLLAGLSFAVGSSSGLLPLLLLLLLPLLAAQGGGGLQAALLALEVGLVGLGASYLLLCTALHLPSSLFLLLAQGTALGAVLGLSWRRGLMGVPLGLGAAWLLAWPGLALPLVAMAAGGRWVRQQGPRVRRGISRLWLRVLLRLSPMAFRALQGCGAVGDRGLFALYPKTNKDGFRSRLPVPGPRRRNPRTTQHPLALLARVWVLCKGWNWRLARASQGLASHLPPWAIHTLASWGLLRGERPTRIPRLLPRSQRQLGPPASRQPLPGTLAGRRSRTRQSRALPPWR
UniProt O14578, sequence (whole entry, looked up): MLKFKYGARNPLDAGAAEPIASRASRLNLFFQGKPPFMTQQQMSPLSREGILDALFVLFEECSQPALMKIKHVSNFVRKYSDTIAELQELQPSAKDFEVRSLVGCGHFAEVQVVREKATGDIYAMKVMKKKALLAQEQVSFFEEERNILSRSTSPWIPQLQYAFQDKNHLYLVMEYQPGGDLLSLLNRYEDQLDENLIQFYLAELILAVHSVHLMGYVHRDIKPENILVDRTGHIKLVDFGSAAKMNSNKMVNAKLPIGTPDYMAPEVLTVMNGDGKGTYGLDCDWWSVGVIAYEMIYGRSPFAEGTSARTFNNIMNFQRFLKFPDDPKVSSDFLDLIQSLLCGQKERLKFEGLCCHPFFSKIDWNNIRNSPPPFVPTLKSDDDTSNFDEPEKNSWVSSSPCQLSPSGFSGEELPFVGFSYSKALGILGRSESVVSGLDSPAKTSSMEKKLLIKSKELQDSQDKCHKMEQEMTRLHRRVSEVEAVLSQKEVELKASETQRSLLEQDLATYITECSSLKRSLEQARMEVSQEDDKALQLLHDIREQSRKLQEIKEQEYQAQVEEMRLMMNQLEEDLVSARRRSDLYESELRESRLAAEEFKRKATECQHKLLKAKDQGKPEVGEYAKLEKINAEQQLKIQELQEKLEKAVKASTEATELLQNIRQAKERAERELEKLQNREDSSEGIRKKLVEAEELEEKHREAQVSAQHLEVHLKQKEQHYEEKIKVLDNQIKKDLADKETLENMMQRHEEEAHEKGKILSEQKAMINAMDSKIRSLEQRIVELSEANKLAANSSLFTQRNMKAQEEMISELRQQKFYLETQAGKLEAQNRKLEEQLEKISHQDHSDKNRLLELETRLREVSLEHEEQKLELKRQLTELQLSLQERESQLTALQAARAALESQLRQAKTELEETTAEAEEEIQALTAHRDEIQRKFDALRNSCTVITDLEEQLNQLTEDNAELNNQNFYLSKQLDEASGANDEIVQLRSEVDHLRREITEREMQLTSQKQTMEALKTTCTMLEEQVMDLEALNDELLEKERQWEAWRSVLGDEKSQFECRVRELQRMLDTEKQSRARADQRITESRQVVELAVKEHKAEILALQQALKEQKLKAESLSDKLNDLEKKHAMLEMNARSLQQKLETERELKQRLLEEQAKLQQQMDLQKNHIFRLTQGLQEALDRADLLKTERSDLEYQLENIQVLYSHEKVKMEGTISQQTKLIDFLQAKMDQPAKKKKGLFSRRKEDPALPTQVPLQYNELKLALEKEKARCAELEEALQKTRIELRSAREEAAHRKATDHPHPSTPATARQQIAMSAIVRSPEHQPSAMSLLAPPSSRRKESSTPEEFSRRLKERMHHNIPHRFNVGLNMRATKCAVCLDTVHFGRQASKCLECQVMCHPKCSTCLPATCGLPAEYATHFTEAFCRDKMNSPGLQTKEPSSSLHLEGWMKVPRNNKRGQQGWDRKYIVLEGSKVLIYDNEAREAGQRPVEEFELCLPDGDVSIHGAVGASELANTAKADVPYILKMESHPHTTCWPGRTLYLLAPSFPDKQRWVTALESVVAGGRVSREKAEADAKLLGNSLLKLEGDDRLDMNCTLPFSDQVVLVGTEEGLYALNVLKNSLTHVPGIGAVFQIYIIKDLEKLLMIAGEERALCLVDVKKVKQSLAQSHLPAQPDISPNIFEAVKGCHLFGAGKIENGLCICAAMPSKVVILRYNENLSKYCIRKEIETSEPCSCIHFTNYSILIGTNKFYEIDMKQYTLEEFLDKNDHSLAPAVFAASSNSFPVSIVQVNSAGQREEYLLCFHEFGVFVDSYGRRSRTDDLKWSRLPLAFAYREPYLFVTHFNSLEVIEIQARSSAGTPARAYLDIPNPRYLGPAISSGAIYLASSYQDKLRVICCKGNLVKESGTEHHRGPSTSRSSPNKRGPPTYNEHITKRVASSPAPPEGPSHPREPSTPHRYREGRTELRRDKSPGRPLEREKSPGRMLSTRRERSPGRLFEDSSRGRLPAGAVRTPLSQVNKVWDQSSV
UniProt O75716, sequence (whole entry, looked up): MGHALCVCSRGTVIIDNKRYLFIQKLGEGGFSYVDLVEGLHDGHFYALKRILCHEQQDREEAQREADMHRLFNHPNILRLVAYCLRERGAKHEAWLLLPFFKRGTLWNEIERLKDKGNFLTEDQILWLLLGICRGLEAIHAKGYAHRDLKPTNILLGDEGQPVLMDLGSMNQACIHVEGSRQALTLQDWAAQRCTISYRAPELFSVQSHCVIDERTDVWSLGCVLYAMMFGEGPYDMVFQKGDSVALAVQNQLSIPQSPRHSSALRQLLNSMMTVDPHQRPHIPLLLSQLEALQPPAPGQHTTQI

Study 1
Structure (SMILES): O=C(Nc1cnn(-c2csc(C(=O)NC3COC3)c2)c1)Nc1ccccc1Cl
Concentration: 5 µM
target	assay	how to read	remaining activity [%]
TAOK2 (Homo sapiens, UniProt Q9UL54)	kinase activity, kinase panel profiling		101
Cell division cycle 7-related protein kinase, with DBF4 (CDC7, Homo sapiens, UniProt O00311)	kinase activity, kinase panel profiling		111
Cyclin-dependent kinase 5, with p35 (CDK5, Homo sapiens, UniProt Q00535)	enzyme activity	reference: untreated control	94.3
STK33 (Homo sapiens, UniProt Q9BYT3)	enzyme activity	reference: untreated control	95.4
CIT (Homo sapiens, UniProt O14578)	enzyme activity, inhibitor		90.1
ZAP70 (Homo sapiens, UniProt P43403)	enzyme activity	reference: untreated control	98.4
Cyclin-dependent kinase 16, with cyclin Y (CDK16, Homo sapiens, UniProt Q00536)	enzyme activity	reference: untreated control	93.2
STK16 (Homo sapiens, UniProt O75716)	enzyme activity	reference: untreated control	94.1

Study 2
Target: MAP kinase-activated protein kinase 3 (MAPKAPK3, Homo sapiens, UniProt Q16644)
UniProt Q16644, sequence (whole entry, looked up): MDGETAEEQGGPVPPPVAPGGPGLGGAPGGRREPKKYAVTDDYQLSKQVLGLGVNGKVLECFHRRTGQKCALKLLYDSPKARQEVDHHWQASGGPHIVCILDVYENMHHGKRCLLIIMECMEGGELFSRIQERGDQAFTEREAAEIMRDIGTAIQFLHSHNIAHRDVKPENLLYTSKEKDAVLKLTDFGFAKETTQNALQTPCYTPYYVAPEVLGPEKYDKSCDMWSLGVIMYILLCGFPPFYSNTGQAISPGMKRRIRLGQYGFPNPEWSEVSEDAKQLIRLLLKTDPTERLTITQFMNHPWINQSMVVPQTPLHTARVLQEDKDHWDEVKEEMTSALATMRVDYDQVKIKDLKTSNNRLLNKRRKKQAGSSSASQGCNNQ
Read-out: enzyme activity
Mode: inhibitor
Concentration: 0.5 µM
Reference: control
SMILES	remaining activity [%]
O=S(=O)(c1cccc2cnccc12)N1CCCNCC1	99.7
Cc1ccc(NC(=O)c2ccc(CN3CCN(C)CC3)cc2)cc1Nc1nc(-c2cccnc2)cs1	97.9
O=C1NC(=O)C(c2cn(CCCn3ccnc3)c3ccccc23)=C1Nc1ccccc1	92.4
O=C(CCCc1ccc(-c2ccccc2F)cc1)Nc1ccc(O)cc1	91
COc1ccc(CNC(=O)Nc2ncc([N+](=O)[O-])s2)cc1	103
CNC(=O)c1cc(Oc2ccc(NC(=O)Nc3ccc(Cl)c(C(F)(F)F)c3)cc2)ccn1	100
CCOC(=O)c1c(C)[nH]c(/C=C2\C(=O)Nc3ccccc32)c1C	91.7
Nc1ncnc2n[nH]c(Nc3ccc(F)cc3)c12	94
O=C(Nc1cccc(Nc2cc(Nc3cccc(C(F)(F)F)c3)ncn2)c1)C1CC1	104
COc1cc2ncnc(Nc3ccc(F)c(Cl)c3)c2cc1OCCCN1CCOCC1	99.6
COc1cc2nccc(Oc3ccc(NC(=S)NC(=O)c4ccccc4C)cc3)c2cc1OC	102
O=C1NC(=O)C(c2cn(CCCO)c3ncccc23)=C1c1cnccn1	103
COc1cc2ncnc(Nc3ccc(Oc4ccccc4)cc3)c2cc1OC	99
Oc1ccc(-c2nc(-c3ccncc3)c(-c3ccc(F)cc3)[nH]2)cc1	101
Cc1ccc(Nc2nccc(N(C)c3ccc4c(C)n(C)nc4c3)n2)cc1S(N)(=O)=O	98.5

Study 3
Target: Beta-1 adrenergic receptor (ADRB1, Homo sapiens, UniProt P08588)
UniProt P08588, sequence (whole entry, looked up): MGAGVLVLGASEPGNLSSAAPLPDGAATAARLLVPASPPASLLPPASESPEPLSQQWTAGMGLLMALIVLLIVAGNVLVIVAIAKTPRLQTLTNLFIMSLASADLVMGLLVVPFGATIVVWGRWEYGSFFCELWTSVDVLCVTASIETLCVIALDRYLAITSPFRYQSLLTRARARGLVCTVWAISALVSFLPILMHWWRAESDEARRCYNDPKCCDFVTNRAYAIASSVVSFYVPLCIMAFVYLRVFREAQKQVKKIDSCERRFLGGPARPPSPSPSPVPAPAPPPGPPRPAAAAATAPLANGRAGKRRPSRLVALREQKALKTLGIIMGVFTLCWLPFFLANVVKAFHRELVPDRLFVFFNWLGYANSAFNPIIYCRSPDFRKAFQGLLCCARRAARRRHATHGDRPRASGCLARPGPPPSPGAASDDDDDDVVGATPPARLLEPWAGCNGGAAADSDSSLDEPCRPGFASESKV
Mode: agonist
Structure (SMILES)	EC50 [µM]
Cc1noc2c(-c3cccnc3N3CC(O)C3)cc(-c3ccccc3)nc12	≥ 100
O=C1c2cnc(-c3cn[nH]c3)nc2OCCN1Cc1ccc(F)cc1F	≥ 100
O=C(Cc1ccccc1)Nc1ccc([C@@H](O)[C@H]2COCC(=O)N2Cc2ccc(C(F)(F)F)cc2)cc1	≥ 100
[O-][n+]1cccc(-c2nc3c(Cl)cccc3cc2[C@@H](Nc2ncnc3cccnc23)C(F)(F)F)c1	≥ 100
COc1ccccc1-c1cc(-c2ccccc2)nc2c(C)noc12	≥ 100
O=C(NCC(O)c1ccccc1)c1cnn2c(-c3ccccc3)ccnc12 (stereo not shown)	≥ 100
Cc1cc(-c2nccc3c(=O)cc(N(C)c4ccccc4)oc23)ccn1	≥ 100

Other studies, line by line
Compound	target	assay	conditions	quantity	result
CNC(=O)Nc1ccc2c(c1)C1(CC2)OC(=O)N(CC(=O)N(Cc2ccc(F)cc2)[C@@H](C)C(F)(F)F)C1=O (single isomer, unassigned)	D(3) dopamine receptor (DRD3, Homo sapiens, UniProt P35462)	binding	off-target scan	Ki	1.14 µM

Some of these lines once more (study 2):
SMILES	remaining activity [%]
CCOC(=O)c1c(C)[nH]c(/C=C2\C(=O)Nc3ccccc32)c1C	91.7
Nc1ncnc2n[nH]c(Nc3ccc(F)cc3)c12	94
O=C(Nc1cccc(Nc2cc(Nc3cccc(C(F)(F)F)c3)ncn2)c1)C1CC1	104
COc1cc2ncnc(Nc3ccc(F)c(Cl)c3)c2cc1OCCCN1CCOCC1	99.6
COc1cc2nccc(Oc3ccc(NC(=S)NC(=O)c4ccccc4C)cc3)c2cc1OC	102
